Measured values from different studies.
“And” joins repeats or separate records; there may be more than shown. Numbers after ± are the reported error. ≈ marks a conversion by molar mass, not a printed value.

`COC1OC(C)C(OC2OC(C)C(OS(=O)(=O)O)C(OS(=O)(=O)O)C2O)C(OS(=O)(=O)O)C1O` (stereo not shown) — result for “activated partial thromboplastin time”: 32.3 ± 0.4 s (human plasma; 128 µg/mL).
For `C[n+]1cc(/C=N/NC(=O)c2ccc3ccc4ccc(C(=O)N/N=C/c5cc6ccccc6[n+](C)c5)nc4c3n2)cc2ccccc21`, the ΔTm was 16.3 ± 1.4 °C (22CTA telomeric G4-DNA antiparallel; FRET melting; 1 µM, K10 buffer, DNA 0.2 µM).
The %ΔTGI of `Nc1nc2cc(CC[C@H]3C[C@@H](n4ccc5c(N)ncnc54)[C@H](O)[C@@H]3O)ccc2cc1Br` is reported as 84.5% (A-427 xenograft, mouse; 1.0 mg/kg/day, day 34).
For `COC1CN([C@H]2CC[C@H]([C@@]3(C)Oc4c(Cl)cc(C(=O)NCc5c(SC)cc(C)[nH]c5=O)c(C)c4O3)CC2)C1`, “log2 fold change” read 1.1 (RNA-seq, item: FHDC1 mouse homolog; mouse, HT-1376 xenograft, whole blood; dose not given; baseline: vehicle).
For `COC1OC(C)C(OC2OC(C)C(OS(=O)(=O)O)C(OC3OC(C)C(OC4OC(C)C(OS(=O)(=O)O)C(OC5OC(C)C(OC6OC(C)C(OS(=O)(=O)O)C(OS(=O)(=O)O)C6OS(=O)(=O)O)C(OS(=O)(=O)O)C5OS(=O)(=O)O)C4OS(=O)(=O)O)C(OS(=O)(=O)O)C3OS(=O)(=O)O)C2OS(=O)(=O)O)C(OS(=O)(=O)O)C1OS(=O)(=O)O` (stereo not shown), “activated partial thromboplastin time” read 56.8 s and 53.8 s and 56 s (human plasma; 16 µg/mL).
For `C[n+]1ccc(/C=N/NC(=O)c2cncc(C(=O)N/N=C/c3cc[n+](C)cc3)n2)cc1`, the ΔTm was 2.9 ± 0.3 °C (22CTA telomeric G4-DNA antiparallel; FRET melting; 1 µM, K10 buffer, DNA 0.2 µM, with: ds26 10 µM).
`c1ccc(-c2n[nH]cc2-c2ccnc3ccccc23)nc1` — result for “log2 fold change”: -0.18 (CMK1 (Candida albicans); kinase binding, MIB/MS competition; Candida albicans lysate; 10 µM; baseline: DMSO).
For `C=CC(=O)N1[C@@H](c2ccc3c(c2)OCO3)c2[nH]c3ccccc3c2C[C@H]1C(=O)N1CCN(C)CC1`, the relative co-enrichment was 95% (human cyclin E1 wild type-3xFLAG:CDK2; co-IP with TMT proteomics, item: HNRNPA2B1; concentration not given, P22626; baseline: wild type DMSO).
`C=CC(=O)Nc1cccc(Cn2ncc3cnc(Nc4cnn(CCOC)c4)nc32)c1` — result for “percent of control”: 93% (ACVR1B human; binding, KINOMEscan; 100 nM; lower = stronger binding).
`CC[n+]1cccc2cc(/C=N/NC(=O)c3cc(C(=O)N/N=C/c4ccc5c(ccc[n+]5CC)c4)ncn3)ccc21` gave a ΔTm of 4.3 ± 0.9 °C (22CTA telomeric G4-DNA antiparallel; FRET melting; 1 µM, K10 buffer, DNA 0.2 µM, with: ds26 10 µM).
For `COC1OC(C)C(OS(=O)(=O)O)C(OC2OC(C)C(OS(=O)(=O)O)C(OC3OC(C)C(OS(=O)(=O)O)C(OC4OC(C)C(OS(=O)(=O)O)C(OC5OC(C)C(OS(=O)(=O)O)C(OC6OC(C)C(OS(=O)(=O)O)C(OC7OC(C)C(OS(=O)(=O)O)C(OC8OC(C)C(OS(=O)(=O)O)C(OC9OC(C)C(OS(=O)(=O)O)C(OC%10OC(C)C(OS(=O)(=O)O)C(OC%11OC(C)C(OS(=O)(=O)O)C(OC%12OC(C)C(OS(=O)(=O)O)C(OS(=O)(=O)O)C%12O)C%11O)C%10O)C9O)C8O)C7O)C6O)C5O)C4O)C3O)C2O)C1O` (stereo not shown), “activated partial thromboplastin time” read 44.3 ± 0.4 s (human plasma; 128 µg/mL).
With `C[n+]1cccc2cc(/C=N/NC(=O)c3cc(C(=O)N/N=C/c4ccc5c(ccc[n+]5C)c4)ncn3)ccc21` the ΔTm was 1.9 ± 0.6 °C (22CTA telomeric G4-DNA antiparallel; FRET melting; 1 µM, K10 buffer, DNA 0.2 µM, with: ds26 10 µM).
For `O=c1c(Oc2ccccc2)c(C(F)(F)F)oc2c(O)c(O)ccc12`, the di-ubiquitin formed was 62% (ROC1-CUL1 E3 subcomplex; di-ubiquitin synthesis; 1 µM; baseline: input).
`COC1OC(C)C(OC2OC(C)C(O)C(OC3OC(C)C(OC4OC(C)C(O)C(OC5OC(C)C(OC6OC(C)C(O)C(OC7OC(C)C(OC8OC(C)C(O)C(OS(=O)(=O)O)C8OS(=O)(=O)O)C(OS(=O)(=O)O)C7OS(=O)(=O)O)C6OS(=O)(=O)O)C(OS(=O)(=O)O)C5OS(=O)(=O)O)C4OS(=O)(=O)O)C(OS(=O)(=O)O)C3OS(=O)(=O)O)C2OS(=O)(=O)O)C(OS(=O)(=O)O)C1OS(=O)(=O)O` (stereo not shown) — result for “activated partial thromboplastin time”: 102 s and 103 s (human plasma; 32 µg/mL).
For `Cc1ncsc1-c1ccc(C(C)NC(=O)C2CC(O)CN2C(=O)C(NC(=O)CCCCCCCCCCN2CCCC(Nc3ncc(Cl)c(Nc4ccccc4S(=O)(=O)C(C)C)n3)C2)C(C)(C)C)cc1` (stereo not shown), “log2 fold change” read -1.72 (22Rv1; RNA-seq, item: TMEM44-AS1; concentration not given; baseline: DMSO).
For `CO[C@@H]1[C@@H](OC(N)=O)[C@@H](O)[C@H](Oc2ccc3c(O)c(NC(=O)c4ccc(O)c(CC=C(C)C)c4)c(=O)oc3c2C)OC1(C)C`, the colony count was 23.5 (HCT-116 BRCA2-/-; 75 µM, replicate 1).
`O=C(N/N=C/c1cc[n+](CC2CC2)c2ccccc12)c1cncc(C(=O)N/N=C/c2cc[n+](CC3CC3)c3ccccc23)n1` gave a ΔTm of 16.4 ± 0.4 °C (22CTA telomeric G4-DNA antiparallel; FRET melting; 1 µM, K10 buffer, DNA 0.2 µM).
`C=C(NC(=O)c1csc(-c2nc3c(cc2O)-c2nc(cs2)C(=O)NC(C(C)O)C(=O)NC(=C(C)OC)c2nc(cs2)C(=O)NC2c4nc(cs4)C(=O)NC(COC(=O)c4c5c6c(cccc6n4O)COC(=O)C(OC4CC(C)(O)C(N(C)C)C(C)O4)C2OC5)c2nc-3cs2)n1)C(N)=O` (stereo not shown) has an MIC50 of 7.8 ng/mL (≈ 5.43 nM) (Streptococcus pneumoniae; penicillin-resistant, 10 isolates; pH 7.0).
`O=C(N/N=C/c1ccc2c(ccc[n+]2Cc2ccccc2)c1)c1cc(C(=O)N/N=C/c2ccc3c(ccc[n+]3Cc3ccccc3)c2)ncn1` has a ΔTm of 12.1 ± 0.8 °C (22CTA telomeric G4-DNA antiparallel; FRET melting; 1 µM, K10 buffer, DNA 0.2 µM).
For `COC1OC(C)C(O)C(OC2OC(C)C(O)C(OC3OC(C)C(O)C(OC4OC(C)C(O)C(OC5OC(C)C(O)C(OS(=O)(=O)O)C5OS(=O)(=O)O)C4OS(=O)(=O)O)C3OS(=O)(=O)O)C2OS(=O)(=O)O)C1OS(=O)(=O)O` (stereo not shown), “activated partial thromboplastin time” read 35.1 ± 0.7 s (human plasma; 128 µg/mL).
The ΔTm of `C[n+]1cc(/C=N/NC(=O)c2cc(C(=O)N/N=C/c3cc4ccccc4[n+](C)c3)ncn2)cc2ccccc21` is reported as 4.5 ± 1.7 °C (22CTA telomeric G4-DNA antiparallel; FRET melting; 1 µM, K10 buffer, DNA 0.2 µM, with: ds26 10 µM).
`Nc1ncc(-c2cc(-c3cnn(CC(F)(F)F)c3)ncc2F)nc1C(=O)NC1CNCC(F)C1` (stereo not shown) gave a remaining binding of 37% (CLK3; KINOMEscan; 1 µM; baseline: DMSO control).

Repeated from above:
For `C[n+]1ccc(/C=N/NC(=O)c2cncc(C(=O)N/N=C/c3cc[n+](C)cc3)n2)cc1`, the ΔTm was 2.9 ± 0.3 °C (22CTA telomeric G4-DNA antiparallel; FRET melting; 1 µM, K10 buffer, DNA 0.2 µM, with: ds26 10 µM).
`c1ccc(-c2n[nH]cc2-c2ccnc3ccccc23)nc1` — result for “log2 fold change”: -0.18 (CMK1 (Candida albicans); kinase binding, MIB/MS competition; Candida albicans lysate; 10 µM; baseline: DMSO).
